# Measured values pooled from the literature.
SMILES,cell line,read-out,method,time,GI50
COC(C(=NOCC(=O)NCCc1ccccc1)C(O)C(C)O)C1Cc2cc3cc(OC4CC(OC5CC(O)C(O)C(C)O5)C(O)C(C)O4)c(C)c(O)c3c(O)c2C(=O)C1OC1CC(OC2CC(OC3CC(C)(O)C(O)C(C)O3)C(O)C(C)O2)C(O)C(C)O1 (stereo not shown),TC-32,cell growth,,72 h,243 nM
CCN1CCN(Cc2ccc(C(=O)Nc3ccc(C)c(NCc4cnc5[nH]ccc5c4OC)c3)cc2C(F)(F)F)CC1,SK-BR-3,cell growth or viability,,48 h,3070 nM
CCC(=C(c1ccc(Cl)cc1)c1ccc(OCCCN(C)C)cc1)c1ccc(OC)cc1,EKVX,cell growth or viability,SRB,,5760 nM
CC/C=C\C/C=C\C/C=C\C/C=C\C/C=C\C/C=C\CCC(=O)Nc1ccn(C2OC(CO)C(O)C2(F)F)c(=O)n1 (stereo not shown),OVCAR-5,cell growth or viability,SRB,,82.1 nM
COC(=O)c1cc(=O)[nH]c2c(-c3cc(OC)c(OC)c(OC)c3)csc12,best of six cancer lines,,SRB,,< 10000 nM
Nc1nc2cc(CC[C@H]3C[C@@H](n4ccc5c(N)ncnc54)[C@H](O)[C@@H]3O)ccc2cc1Br,COLO 699,cell growth or viability,MTT,6 days,> 1000 nM
COC(C(=NOCC(=O)O)C(O)C(C)O)C1Cc2cc3cc(OC4CC(OC5CC(O)C(O)C(C)O5)C(O)C(C)O4)c(C)c(O)c3c(O)c2C(=O)C1OC1CC(OC2CC(OC3CC(C)(O)C(O)C(C)O3)C(O)C(C)O2)C(O)C(C)O1 (stereo not shown),TC-32,cell growth,,72 h,1150 nM
CS(=O)(=O)c1ccc(-c2nnc(/C=C/c3nnc(-c4ccc(C#N)cc4)o3)n2-c2ccccc2Cl)nc1,COLO 320DM,cell growth or viability,MTT,5 days,434 nM
COC(C(=NOCC(=O)Nc1ccccc1)C(O)C(C)O)C1Cc2cc3cc(OC4CC(OC5CC(O)C(O)C(C)O5)C(O)C(C)O4)c(C)c(O)c3c(O)c2C(=O)C1OC1CC(OC2CC(OC3CC(C)(O)C(O)C(C)O3)C(O)C(C)O2)C(O)C(C)O1 (stereo not shown),TC-32,cell growth,,72 h,36 nM
Cc1ccc(Nc2ncc3c(n2)N(c2ccccc2)C(=O)N(c2cc(NC(=O)c4cccc(C(F)(F)F)c4)ccc2C)C3)cn1,Hep3B,cell growth or viability,ATP luminescence,72 h,1510 nM
COC(C(=NOCC(=O)NCCc1c[nH]c2ccccc12)C(O)C(C)O)C1Cc2cc3cc(OC4CC(OC5CC(O)C(O)C(C)O5)C(O)C(C)O4)c(C)c(O)c3c(O)c2C(=O)C1OC1CC(OC2CC(OC3CC(C)(O)C(O)C(C)O3)C(O)C(C)O2)C(O)C(C)O1 (stereo not shown),TC-32,cell growth,,72 h,189 nM
Cc1ccc(Nc2ncc3c(n2)N(C)C(=O)N(c2cc(NC(=O)c4ccc(CN5CCN(C)CC5)c(C(F)(F)F)c4)ccc2C)C3)cn1,Huh-7,cell growth or viability,ATP luminescence,72 h,173 nM
COC(C(=NOCC(=O)Nc1ccncc1)C(O)C(C)O)C1Cc2cc3cc(OC4CC(OC5CC(O)C(O)C(C)O5)C(O)C(C)O4)c(C)c(O)c3c(O)c2C(=O)C1OC1CC(OC2CC(OC3CC(C)(O)C(O)C(C)O3)C(O)C(C)O2)C(O)C(C)O1 (stereo not shown),TC-32,cell growth,,72 h,81 nM
Cc1ccc(Nc2ncc3c(n2)N(C2CCCCC2)C(=O)N(c2cc(NC(=O)c4cccc(C(F)(F)F)c4)ccc2C)C3)cn1,Huh-7,cell growth or viability,ATP luminescence,72 h,93 nM
CCON=C(C(O)C(C)O)C(OC)C1Cc2cc3cc(OC4CC(OC5CC(O)C(O)C(C)O5)C(O)C(C)O4)c(C)c(O)c3c(O)c2C(=O)C1OC1CC(OC2CC(OC3CC(C)(O)C(O)C(C)O3)C(O)C(C)O2)C(O)C(C)O1 (stereo not shown),TC-32,cell growth,,72 h,44 nM
Cc1ccc(Nc2ncc3c(n2)N(C)C(=O)N(c2cc(NC(=O)c4ccccc4)ccc2C)C3)cn1,Hep3B,cell growth or viability,ATP luminescence,72 h,8660 nM
CON=C(C(O)C(C)O)C(OC)C1Cc2cc3cc(OC4CC(OC5CC(O)C(O)C(C)O5)C(O)C(C)O4)c(C)c(O)c3c(O)c2C(=O)C1OC1CC(OC2CC(OC3CC(C)(O)C(O)C(C)O3)C(O)C(C)O2)C(O)C(C)O1 (stereo not shown),TC-32,cell growth,,72 h,86 nM
Cc1ccc(Nc2ncc3c(n2)N(C)C(=O)N(c2cc(NC(=O)c4ccc(N5CCN(C)CC5)c(C(F)(F)F)c4)ccc2C)C3)cn1,Huh-7,cell growth or viability,ATP luminescence,72 h,70 nM
COC(C(=NOC(C)(C)C)C(O)C(C)O)C1Cc2cc3cc(OC4CC(OC5CC(O)C(O)C(C)O5)C(O)C(C)O4)c(C)c(O)c3c(O)c2C(=O)C1OC1CC(OC2CC(OC3CC(C)(O)C(O)C(C)O3)C(O)C(C)O2)C(O)C(C)O1 (stereo not shown),TC-32,cell growth,,72 h,416 nM
Cc1ccc(NC(=O)c2cccc(C(F)(F)F)c2)cc1N1Cc2cnc(N)nc2N(C)C1=O,Huh-7,cell growth or viability,ATP luminescence,72 h,531 nM
Cc1nc(F)ccc1-c1cc(Cn2ccn(C)c2=N)cc(C(=O)NCc2ccc(Cl)c(Cl)c2)c1,MV4-11 p53 shRNA_427,cell proliferation,,72 h,8000 nM
CCN1C(=O)N(c2cc(NC(=O)c3cccc(C(F)(F)F)c3)ccc2C)Cc2cnc(Nc3ccc(C)nc3)nc21,Hep3B,cell growth or viability,ATP luminescence,72 h,652 nM
CC(=C(c1ccc(O)cc1)c1ccc(Cl)cc1)c1ccc(Cl)cc1,EKVX,cell growth or viability,SRB,,820 nM
Cc1ccc(Nc2ncc3c(n2)N(Cc2ccccc2)C(=O)N(c2cc(NC(=O)c4cccc(C(F)(F)F)c4)ccc2C)C3)cn1,Huh-7,cell growth or viability,ATP luminescence,72 h,118 nM
CC(C)c1cnn2c(NCc3ccccc3F)cc(N[C@H]3CC[C@@H](N)CC3)nc12,"HCT-116, MCF7 and A549",,,,1000 nM

# Some of these lines once more:
SMILES,cell line,read-out,method,time,GI50
Cc1ccc(Nc2ncc3c(n2)N(C)C(=O)N(c2cc(NC(=O)c4ccccc4)ccc2C)C3)cn1,Hep3B,cell growth or viability,ATP luminescence,72 h,8660 nM
CON=C(C(O)C(C)O)C(OC)C1Cc2cc3cc(OC4CC(OC5CC(O)C(O)C(C)O5)C(O)C(C)O4)c(C)c(O)c3c(O)c2C(=O)C1OC1CC(OC2CC(OC3CC(C)(O)C(O)C(C)O3)C(O)C(C)O2)C(O)C(C)O1 (stereo not shown),TC-32,cell growth,,72 h,86 nM
Cc1ccc(Nc2ncc3c(n2)N(C)C(=O)N(c2cc(NC(=O)c4ccc(N5CCN(C)CC5)c(C(F)(F)F)c4)ccc2C)C3)cn1,Huh-7,cell growth or viability,ATP luminescence,72 h,70 nM
COC(C(=NOC(C)(C)C)C(O)C(C)O)C1Cc2cc3cc(OC4CC(OC5CC(O)C(O)C(C)O5)C(O)C(C)O4)c(C)c(O)c3c(O)c2C(=O)C1OC1CC(OC2CC(OC3CC(C)(O)C(O)C(C)O3)C(O)C(C)O2)C(O)C(C)O1 (stereo not shown),TC-32,cell growth,,72 h,416 nM
